Measurements pooled from the literature.
Numbered parts are unrelated; each lists some results of a single study. Positions count from the first letter of the parent shown.

Sample 1 — technique: RNA Bind-n-Seq; form: RNA; medium: in vitro; concentration: 1 µM; setting: whole 134-nt RNA, ends assumed; added: 150 mM KCl; relative to: input library; direction: higher = stronger binding
Target: Ras GTPase-activating protein-binding protein 1, RRM domain (G3BP1, Homo sapiens, UniProt Q13283)
Sequence of UniProt Q13283 (whole entry, looked up): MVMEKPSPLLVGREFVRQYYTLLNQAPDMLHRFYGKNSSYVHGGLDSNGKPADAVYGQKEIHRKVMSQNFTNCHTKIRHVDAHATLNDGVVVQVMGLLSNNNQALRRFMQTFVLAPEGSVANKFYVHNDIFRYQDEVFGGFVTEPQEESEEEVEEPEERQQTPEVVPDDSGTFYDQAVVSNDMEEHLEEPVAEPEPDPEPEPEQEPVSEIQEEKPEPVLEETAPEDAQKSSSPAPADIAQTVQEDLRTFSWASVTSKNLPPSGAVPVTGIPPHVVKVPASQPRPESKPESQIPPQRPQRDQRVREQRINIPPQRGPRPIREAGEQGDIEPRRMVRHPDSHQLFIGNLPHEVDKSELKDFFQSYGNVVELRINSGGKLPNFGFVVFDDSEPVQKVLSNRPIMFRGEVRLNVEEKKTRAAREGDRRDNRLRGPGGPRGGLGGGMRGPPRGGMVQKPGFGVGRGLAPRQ
Constant ends, left off below: GGGAGUUCUACAGUCCGACGAUC … UGGAAUUCUCGGGUGUCAAGG
| Sequence | log2 enrichment |
| --- | --- |
| CAAGUCCUGUGCUACACAUCGUAUGUACCGAAUCGGUUUGGAAAAAAAGGAAAGGAAAGUAUUAUGUUACGCCGUUCGGAUCUGCACUUC | -0.239 |
| AAGUCCUGUGCUACACAUCGUAUGUACCGAAUCGGGGUGGGGUUUUUGGGGAGGGGAAAGUAUUAUGUUACGCCGUUCGGAUCUGCACUU | 0.969 |
| GCAGGAAGUAAAAACAAAUGGAAAUGCUUCGGAAAAUGGCAGGGGUGGGGGUUGCUAAGGAAAGGGUGGGAUGGGAGUGGGUAAAGAGUU | 1.26 |
| UGGGAGGUGGAUUUUGUUUAUUUUUUUAGCUCAUUUCCAGGGGUGGGAAUUUUUUUUUAAUAUGUGUCAUGAAUAAAGUAGUUUUUGAAA | 1.5 |
| UAACUUUAGUGGAGGAUCUGAUGGAUAUGGCAGUGGACGUGGAUUUGGGGAUGGCUAUAAUGGGUAUGGAGGAGGACCUGGAGGUGGCAA | -0.7 |

Sample 2 — technique: RNA Bind-n-Seq; form: RNA; medium: in vitro; concentration: 365 nM; relative to: no-protein control; direction: higher = stronger binding
Target: RNA binding protein fox-1 homolog 2, RRM domain, GST-SBP tag (RBFOX2, Homo sapiens, UniProt O43251-10, residues 100-194)
Setting: natural RNA segment, single round, ends assumed
Constant ends, left off below: GGGAGUUCUACAGUCCGACGAUC … UGGAAUUCUCGGGUGCCAA
Residues (chain): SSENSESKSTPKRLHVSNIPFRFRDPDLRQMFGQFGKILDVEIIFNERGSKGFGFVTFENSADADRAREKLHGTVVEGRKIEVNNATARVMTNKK
| Sequence | RBNS enrichment (R) |
| --- | --- |
| CAGUCUUAGUUGCAUUUGUUGUUUAUUUGUUGGGCUCACCCAACUCUUGACACCAUAGCAGAGCAUCUCCGCAAGGUCCAUCCUCCGGAAUGAGGCUGUUGGGGUGUCCU | 0.277 |
| AGCUCUGUUACCCUGAGAACACCAGAGCUCCCCUUGUCUCCCUCUCUCUCUCAUCCAGGGUCCCUGCCUGACCCACCAGUUGCUCGUGAGCUGCACAGUUCAGAUGAGAC | 0.69 |
| GUACUGUAACAGUAAUUUAUAGUAAUGUUUUAAAAUCAACUUUUUAUUGCCUUCUCACCAGCUGCAAAGUGUUUUGUACCAGUGAGUUUUUGCAAUAAUGCAGUAUGGUA | 0.479 |
| UUUUUCAAUUGACAGUUGCAGAAUUGUGGAGUGUUUUUACAUUGAUCUUUUGCUAAUGCAGUUAGCAGUAUGUUUUGCAUGUAUGAAUUAAUAAAUCCUUGAAUCAUACA | 0.537 |
| UGCCAGGAAGCCCUUCUUGCUUUUGAGAGAGGCUGUGACCACCCCCCAUCCUUCUCCCUACACUCCCAGCCAACCUAGUGCCCAAGCAGCUAAACUUGGCUUCCUUCUAA | 0.688 |
| CGCCACCUCUACCUGUUCCCAGGACACCCUCCCACAUGUGUCACCUCCCCAUCAUCCACGCCAAGUGGAAGCCACUGGACCACAGGAGGUGUGAUAGAGCCUUUGAUCUU | 0.67 |
| GAUUGUAAGCAGGGAGGAAACCUCUGCAGCUCAUUCUGCCACUGCAAAGCUGGUGUAGCCAUGCUGGUGAGAAAAAUCCUGUUCAACCUGGGUUCUCCCAGUUACGGAAA | 0.232 |
| CACUAUUCUGAGGGAAAAUCUGACACCUAAGAAAUUUACUGUGAAAAAGCAUUUUAAAAAGAAAAGGUUUUAGAAUAUGAUCUAUUUUAUGCAUAUUGUUUAUAAAGACA | 0.378 |
| UUUAGUGACCAGCUGAUCUUCCCUUGGAUCCUCCAAUAAAGGGGAAAAAAUACUUGUCUUAUGUUGUUUUAGCAAGGGAGUUCAGCCAAGUGACAGGAAAGAUUCCCUGG | 0.623 |

Sample 3 — target: CCNF, cyclin fold, Cln2 fusion (human); technique: yeast growth competition, sequencing; medium: yeast; setting: strong parent motif; relative to: not given; direction: higher = stronger binding
Starting sequence: RBL2 docking peptide (human); STTRRRLFVENDS
| Variant | normalised enrichment score |
| --- | --- |
| R5L | 0.781 |
| S1T | 7.81 |
| T2V | 6.58 |
| R4C | 8.34 |
| T3K | 1.04 |
| E10M | 7.91 |
| R4I | 6.85 |
| R6K | 8.61 |
| L7H | -0.00419 |
| T2H | 8.97 |
| R5H | 1.47 |
| R5A | 0.182 |

Mixed results
| Substance | target | assay | test system | conditions | scale | endpoint | result |
| --- | --- | --- | --- | --- | --- | --- | --- |
| PhoQ, residues 284 288 289 292 302 303 AQGLTV | PhoP, residues 12 14 15 18 19 SGWQI (Escherichia coli, UniProt P23836) | Sort-seq, measured: YFP reporter | E. coli | PhoQ-PhoP variant library, added: 10 µM Mg2+ | relative to: high Mg2+ state, higher = stronger signaling | fold induction | 1.23 |

Repeated from above (sample 2):
| Sequence | RBNS enrichment (R) |
| --- | --- |
| GUACUGUAACAGUAAUUUAUAGUAAUGUUUUAAAAUCAACUUUUUAUUGCCUUCUCACCAGCUGCAAAGUGUUUUGUACCAGUGAGUUUUUGCAAUAAUGCAGUAUGGUA | 0.479 |
| AGCUCUGUUACCCUGAGAACACCAGAGCUCCCCUUGUCUCCCUCUCUCUCUCAUCCAGGGUCCCUGCCUGACCCACCAGUUGCUCGUGAGCUGCACAGUUCAGAUGAGAC | 0.69 |
| CACUAUUCUGAGGGAAAAUCUGACACCUAAGAAAUUUACUGUGAAAAAGCAUUUUAAAAAGAAAAGGUUUUAGAAUAUGAUCUAUUUUAUGCAUAUUGUUUAUAAAGACA | 0.378 |
| CAGUCUUAGUUGCAUUUGUUGUUUAUUUGUUGGGCUCACCCAACUCUUGACACCAUAGCAGAGCAUCUCCGCAAGGUCCAUCCUCCGGAAUGAGGCUGUUGGGGUGUCCU | 0.277 |
